Results from different studies.
Lines come from different studies, so protocols differ. Values joined by “and” are separate records of one study, mostly repeats; a detail may differ. Numbers after ± are the reported error.
Cell line: MCF7

| Compound | assay | setting | scale | endpoint | value |
| --- | --- | --- | --- | --- | --- |
| CCC(=CCc1c(O)cc2c(c1O)C(=O)CC(c1cccc(O)c1)O2)CC (stereo not drawn) | cytotoxicity, MTT | 1.696 µM, 48 h | – | growth inhibition | 11.8% |
| O=C(CCl)c1ccccc1Nc1cccc(C(F)(F)F)c1 | firefly luciferase reporter | 25 µM, 6 h | relative to: vehicle | TEAD reporter activity | 61.8 ± 4.1% |
| COC(=O)c1cc(NC2=NC(=O)C(=Cc3ccc(N(C)C)cc3)S2)ccc1OC(C)=O | GC-MS, refers to: 2-Propenoic acid | 1 µM | relative to: DMSO | metabolite level | 0.22 fold change |
| CC(=O)[O][Pd][c]1ccccc1N1N=C(C)C(C)(C)C1=O.CC(=O)[O][Pd][c]1ccccc1N1N=C(C)C(C)(C)C1=O | FLICA flow cytometry | 25 µM, 24 h | – | caspase-3/7 active cells | 44.2 ± 3.35% |
| Cc1c(COc2cc(OCc3cccc(C#N)c3)c(CNC(CO)(CO)CO)cc2Cl)cccc1-c1cccc(OCCCCCC(=O)NO)c1 | annexin V-FITC/PI flow cytometry | 5 µM, 48 h, early plus late apoptosis | – | apoptotic cells | 29.4% |
| FC(F)(F)C1(c2ccc(CN3CCN(C(c4ccccc4)c4ccc(Cl)cc4)CC3)cc2)CC1 (stereo not drawn) | – | 72 h | – | EC50 | 21 ± 1.71 µM |
| C[C@@H]1CC[C@@H]([C@](O)(CNCc2ccc(F)cc2)COCc2ccccc2)[C@H](OCc2ccccc2)C1 | cell growth or viability, MTT | 10 µM, 72 h | – | inhibition | 30.2% |
| CC(=O)[O][Pd][c]1ccccc1-n1nc(C)cc1C.CC(=O)[O][Pd][c]1ccccc1-n1nc(C)cc1C | PI flow cytometry | 25 µM, 24 h | – | S phase cells | 40.5 ± 1.63% |
| COc1ccc(CNC[C@@](O)(COCc2ccc(F)cc2)[C@@H]2CC[C@@H](C)C[C@H]2OCc2ccc(F)cc2)cc1 | cell growth or viability, MTT | 30 µM, 72 h | – | inhibition | 99% |
| CSC(=S)N/N=C(\C)c1ccc(Nc2nnc(-c3ccc(Cl)cc3)c3ccccc23)cc1 | cell growth or viability, MTT | 78 nM | – | cell death | 7.08% |
| CCCC(CCC)C(=O)OCc1cn(-c2cc3ccccc3oc2=O)nn1 | NCI60 single-dose screen | 10 µM | – | growth percentage | 889% |
| CCC(=CCc1c(O)cc2c(c1O)C(=O)CC(c1ccccc1O)O2)CC (stereo not drawn) | cytotoxicity, MTT | 54.29 µM, 48 h | – | growth inhibition | 31.7% |
| COc1cc(/C=C/C(=O)/C=C(O)/C=C/c2ccc(OCC(=O)N3CCOCCOCCOCCOCC3)c(OC)c2)ccc1OCC(=O)N1CCOCCOCCOCCOCC1 | cell growth or viability, SRB | 25 µM | – | inhibition | 89.6% |
| C/C(=N\NC(N)=S)c1c(O)c2ccccc2oc1=O | cell growth, MTT | – | relative to: IC50 BJ-1 over MCF7 | selectivity index | > 12.3 |
| CC(=O)[O][Pd][c]1cc(C)ccc1N1N=C(C)C(C)(C)C1=O.CC(=O)[O][Pd][c]1cc(C)ccc1N1N=C(C)C(C)(C)C1=O | FLICA flow cytometry | 25 µM, 24 h | – | caspase-9 active cells | 21.6 ± 5.37% |
| CC(C)C[C@@H](NC(=O)[C@H](C)NC(=O)CNC(=O)[C@@H](NC=O)C(C)C)C(=O)N[C@@H](C)C(=O)N[C@@H](C(=O)N[C@H](C(=O)N[C@@H](C(=O)N[C@@H](Cc1c[nH]c2ccccc12)C(=O)N[C@H](CC(C)C)C(=O)N[C@@H](Cc1c[nH]c2ccccc12)C(=O)N[C@H](CC(C)C)C(=O)N[C@@H](Cc1c[nH]c2ccccc12)C(=O)N[C@H](CC(C)C)C(=O)N[C@@H](Cc1c[nH]c2ccccc12)C(=O)NCCO)C(C)C)C(C)C)C(C)C | flow cytometry | 20 nM, 48 h | – | cells in G1 phase | 52.1 ± 0.94% |
| COc1cccc(CNC[C@@](O)(COCc2ccccc2)[C@@H]2CC[C@@H](C)C[C@H]2OCc2ccccc2)c1 | cell growth or viability, MTT | 30 µM, 72 h | – | inhibition | 95.3% |
| COCCCCCNc1nc(NCCCCCCN(C)C)c2cc(NC(=O)/C=C/CN(C)C)ccc2n1 | CellTiter-Glo | 1.562 µM, 48 h, unit not given | relative to: DMSO-treated cells | viability | 1.02 and 1.12 and 1.09 |

| Compound | assay | setting | scale | endpoint | value |
| --- | --- | --- | --- | --- | --- |
| Nc1ncc2c(n1)-c1c([nH]c3ccc(C4=CCOCC4)cc13)CCC2 | Western blot, refers to: phospho-p70-S6K Thr389 | 5 µM, 48 h | relative to: total p70-S6K | phospho-p70-S6K level | 60% |
| CCN(C(=O)c1cc(F)ccc1Oc1nncnc1N1CCC2(C1)CN([C@H](CCCN(C)CCOC)C(C)C)C2)C(C)C | cell growth or viability | 72 h | – | GI50 | > 10 µM |
| CSC(=S)N/N=C(\C)c1ccc(S(=O)(=O)N2CCC(C)CC2)cc1 | flow cytometry | 4.29 µM (IC50), 72 h | – | cells in S phase | 29.8% |
| CCC(=CCc1c(O)cc2c(c1O)C(=O)CC(c1ccc(O)cc1)O2)CC (stereo not drawn) | cytotoxicity, MTT | 27.14 µM, 48 h | – | growth inhibition | 54.3% |
| CC(=NN=c1sc(C(=O)c2ccccc2)nn1-c1ccccc1)c1ccc(S(=O)(=O)N2CCC(C)CC2)cc1 | annexin V/PI | concentration not given, 72 h, at IC50 | – | necrotic cells | 1.66% |
| COC(=O)c1cc(NC2=NC(=O)C(=Cc3ccc(C)cc3)S2)ccc1OC(C)=O | GC-MS, refers to: Uracil | 1 µM | relative to: DMSO | metabolite level | 0.03 fold change |
| COc1ccc(CNC[C@@](O)(COCc2ccc(OC)cc2)[C@@H]2CC[C@@H](C)C[C@H]2OCc2ccc(OC)cc2)cc1 | cell growth or viability, MTT | 10 µM, 72 h | – | inhibition | 96.5% |
| CC[C@H]([C@H](C)c1ccc(O)cc1)[C@@H](CC)c1ccc(O)cc1 | cell growth or viability, ATP luminescence | 5 days | – | EC50 | 0.0099 µM |
| C=CCc1c(O)cc2c(c1O)C(=O)CC(c1ccc(O)cc1)O2 (stereo not drawn) | cytotoxicity, MTT | 1.601 µM, 48 h | – | growth inhibition | -3.81% |
| COc1ccccc1CNC[C@@](O)(COCc1ccccc1)[C@@H]1CC[C@@H](C)C[C@H]1OCc1ccccc1 | cell growth or viability, MTT | 30 µM, 72 h | – | inhibition | 94.8% |
| CCCCCCCCCCCCCC(=S)NCCCC[C@H](NS(C)(=O)=O)C(=O)N[C@H](C)C(=O)N[C@@H](CCCNC(=N)N)C(N)=O | cell growth or viability, MTT | 72 h | – | EC50 | 29 to 55 µM |
| COc1ccc(C2CC(=O)c3c(cc(O)c(CC=C(C)C)c3O)O2)cc1 (stereo not drawn) | cytotoxicity, MTT | 56.43 µM, 48 h | – | growth inhibition | 5.23% |
| C[C@@H]1CC[C@@H]([C@@](O)(COCc2ccccc2)Cn2cnc3ccccc32)[C@H](OCc2ccccc2)C1 | cell growth or viability, MTT | 10 µM, 72 h | – | inhibition | 67.5% |
| Oc1ccnc(-c2cc(O)ccn2)c1.[Cl-].[Cl-].[Ru+2].c1ccc(-c2ccnc3c2ccc2c(-c4ccccc4)ccnc23)cc1.c1ccc(-c2ccnc3c2ccc2c(-c4ccccc4)ccnc23)cc1 | CCK-8 viability | white light 2 h | – | EC50 | 0.5 µM |
| COc1ccc(CNC[C@](O)(COCc2ccccc2)[C@@H]2CC[C@@H](C)C[C@H]2OCc2ccccc2)cc1 | cell growth or viability, MTT | 30 µM, 72 h | – | inhibition | 84.5% |
| CCC(=CCc1c(O)cc2c(c1O)C(=O)CC(c1ccc(OC)c(O)c1)O2)CC (stereo not drawn) | cytotoxicity, MTT | 12.55 µM, 48 h | – | growth inhibition | 27.1% |
| C[C@@H]1CC[C@@H]([C@](O)(CNCc2ccccc2F)COCc2ccccc2)[C@H](OCc2ccccc2)C1 | cell growth or viability, MTT | 30 µM, 72 h | – | inhibition | 98.4% |
| CSC(=NN=C(C)c1ccc(S(=O)(=O)N2CCC(C)CC2)cc1)N(C)C | flow cytometry | 4.29 µM (IC50), 72 h | – | cells in S phase | 30.2% |

Repeated from above:
| Compound | assay | setting | scale | endpoint | value |
| --- | --- | --- | --- | --- | --- |
| Nc1ncc2c(n1)-c1c([nH]c3ccc(C4=CCOCC4)cc13)CCC2 | Western blot, refers to: phospho-p70-S6K Thr389 | 5 µM, 48 h | relative to: total p70-S6K | phospho-p70-S6K level | 60% |
| CCN(C(=O)c1cc(F)ccc1Oc1nncnc1N1CCC2(C1)CN([C@H](CCCN(C)CCOC)C(C)C)C2)C(C)C | cell growth or viability | 72 h | – | GI50 | > 10 µM |
| CSC(=S)N/N=C(\C)c1ccc(S(=O)(=O)N2CCC(C)CC2)cc1 | flow cytometry | 4.29 µM (IC50), 72 h | – | cells in S phase | 29.8% |
| CCC(=CCc1c(O)cc2c(c1O)C(=O)CC(c1ccc(O)cc1)O2)CC (stereo not drawn) | cytotoxicity, MTT | 27.14 µM, 48 h | – | growth inhibition | 54.3% |
